Measured values gathered from unrelated publications.
Every numbered part comes from another study and shows a few of its results, in no order.

Block 1 — method: aptamer microarray, sandwich; molecule type: DNA with 2'F-ANA; sample: in vitro; tested at: 200 nM; with: Cy3 exosite-II aptamer, 400 nM; reading: higher = stronger binding; sequence: GGTTGGTGTGGTTGG
Target: Prothrombin, mature alpha-thrombin (F2, Homo sapiens, UniProt P00734)
Setting: whole 15-mer aptamer, many near background
Under “mean fluorescence intensity”, `2'F-ANA at 1 3 4 5 6 10 11 14` is recorded as 46.2 a.u.
`2'F-ANA at 1 2 3 5 6 7 9 13 14 15`: “mean fluorescence intensity” 55.5 a.u.
Under “mean fluorescence intensity”, `2'F-ANA at 3 5 6 7 10 11 13 15` is recorded as 54.4 a.u.
`2'F-ANA at 1 2 3 9 11 12 13 14 15` — result for “mean fluorescence intensity”: 102 a.u.
For `2'F-ANA at 1 3 4 6 8 10 11 12 13`, “mean fluorescence intensity” read 65.1 a.u.
Under “mean fluorescence intensity”, `2'F-ANA at 2 4 5 7 8 9 11 12 13` is recorded as 84.4 a.u.
`2'F-ANA at 1 7 9 10 12 13 14`: “mean fluorescence intensity” 47.7 a.u.
Under “mean fluorescence intensity”, `2'F-ANA at 3 4 5 6 7 8 9 11 12 13 15` is recorded as 109 a.u.
For `2'F-ANA at 3 5 7 8 11 15`, “mean fluorescence intensity” read 124 a.u.
`2'F-ANA at 6 7 9 11 13 14 15`: “mean fluorescence intensity” 155 a.u.
`2'F-ANA at 2 4 8` — result for “mean fluorescence intensity”: 539 a.u.
`2'F-ANA at 4 6 9 12 13 14`: “mean fluorescence intensity” 79.3 a.u.
Under “mean fluorescence intensity”, `2'F-ANA at 3 4 6 8 9 12 13 14` is recorded as 257 a.u.
Under “mean fluorescence intensity”, `2'F-ANA at 3 8 9 10 11 13` is recorded as 424 a.u.
`2'F-ANA at 1 6 7 9 12 13 15`: “mean fluorescence intensity” 229 a.u.
Under “mean fluorescence intensity”, `2'F-ANA at 1 2 6 7 8 10 11 12 13 14` is recorded as 56.4 a.u.
`2'F-ANA at 1 2 6 9 12 13 14` — result for “mean fluorescence intensity”: 58.5 a.u.
For `2'F-ANA at 1 4 5 6 10 11 12 14 15`, “mean fluorescence intensity” read 47.2 a.u.

Block 2 — method: protein binding microarray; molecule type: double-stranded DNA, one strand shown; sample: in vitro; tested at: not given; relative to: not given; reading: higher = stronger binding
Target: Histone acetyltransferase KAT6A, winged helix 2, GST fusion (KAT6A, Homo sapiens, UniProt Q92794, residues 85-181)
Setting: 8-mer, flanks averaged, mean of 2 arrays, mostly near background
Construct (chain): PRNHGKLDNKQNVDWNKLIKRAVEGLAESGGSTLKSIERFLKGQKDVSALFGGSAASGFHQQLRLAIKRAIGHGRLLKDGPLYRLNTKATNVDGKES
For `AGACGGTC`, the E-score was -0.0599.
The E-score of `AACTTACG` is reported as -0.107.
`AACGTACA` gave an E-score of -0.157.
For `ATATCGTG`, the E-score was 0.0362.
The E-score of `TACCCGAA` is reported as -0.133.
`GGCCATTA` has an E-score of -0.0252.
With `GGTAAAAA` the E-score was 0.0462.
`CATAACCG` has an E-score of -0.106.
The E-score of `GACTCTCC` is reported as -0.167.
`CCCAGTGA` has an E-score of -0.0775.
With `AAACACTG` the E-score was -0.0164.
With `ATGTGCAG` the E-score was -0.0896.
`CAGACTCC` gave an E-score of -0.0469.
For `CCTACGTA`, the E-score was -0.0491.
`ACCCTTGG` gave an E-score of -0.152.
For `ATCGGCAC`, the E-score was 0.125.
For `AGGGACTC`, the E-score was -0.172.
`GGCACACA` gave an E-score of 0.0942.
`CGTGAGCC` gave an E-score of -0.0366.
The E-score of `ATCTACAA` is reported as -0.0903.
`ATGCTAGA` has an E-score of 0.0423.
`ATTTCGGA` has an E-score of 0.0464.
`ATTTATTC` has an E-score of 0.0898.
With `AGATTACC` the E-score was -0.142.
For `ACATCTGA`, the E-score was -0.157.

Block 3 — method: universal PBM; molecule type: double-stranded DNA, one strand shown; sample: in vitro; tested at: 600 nM; reading: higher = stronger binding
Target: Sal-like protein 4, full length isoform A (SALL4, Homo sapiens, UniProt Q9UJQ4, residues 1-1053)
Sequence of UniProt Q9UJQ4 (whole entry, looked up): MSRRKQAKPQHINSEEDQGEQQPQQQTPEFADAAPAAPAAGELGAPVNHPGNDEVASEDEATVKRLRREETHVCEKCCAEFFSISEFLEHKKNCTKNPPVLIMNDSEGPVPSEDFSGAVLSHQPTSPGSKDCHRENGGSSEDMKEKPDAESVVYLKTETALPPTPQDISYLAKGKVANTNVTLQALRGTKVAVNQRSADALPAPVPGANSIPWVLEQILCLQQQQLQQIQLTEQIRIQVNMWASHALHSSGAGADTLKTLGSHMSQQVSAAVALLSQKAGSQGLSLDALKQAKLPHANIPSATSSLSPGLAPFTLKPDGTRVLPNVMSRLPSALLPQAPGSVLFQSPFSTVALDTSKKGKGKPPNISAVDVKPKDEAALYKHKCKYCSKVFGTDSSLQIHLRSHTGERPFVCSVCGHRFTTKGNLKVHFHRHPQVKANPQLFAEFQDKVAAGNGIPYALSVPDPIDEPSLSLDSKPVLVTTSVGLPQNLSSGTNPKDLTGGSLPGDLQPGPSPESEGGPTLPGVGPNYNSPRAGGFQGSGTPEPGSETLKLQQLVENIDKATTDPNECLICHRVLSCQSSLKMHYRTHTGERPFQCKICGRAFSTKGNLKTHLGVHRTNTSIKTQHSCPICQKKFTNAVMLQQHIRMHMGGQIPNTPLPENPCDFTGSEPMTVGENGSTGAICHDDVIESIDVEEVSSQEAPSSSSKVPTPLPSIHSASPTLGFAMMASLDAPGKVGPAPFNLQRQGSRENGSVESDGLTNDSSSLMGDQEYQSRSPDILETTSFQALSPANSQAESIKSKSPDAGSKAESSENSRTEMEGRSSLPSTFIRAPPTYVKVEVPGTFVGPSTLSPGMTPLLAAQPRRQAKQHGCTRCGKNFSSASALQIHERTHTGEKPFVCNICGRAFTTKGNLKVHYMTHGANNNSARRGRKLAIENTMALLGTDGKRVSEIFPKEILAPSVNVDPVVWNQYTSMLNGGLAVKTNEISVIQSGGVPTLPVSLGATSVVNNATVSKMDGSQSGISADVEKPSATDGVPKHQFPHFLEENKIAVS
Setting: 8-mer, flanks averaged, mean of replicates
`AATACAAG` gave an E-score of 0.295.
`AGAGCGAT` gave an E-score of -0.164.
`TCTTCAAA` gave an E-score of 0.266.
`GATGAGCC` gave an E-score of -0.28.
`GGCGTGGA` has an E-score of -0.263.
For `AGGTGTGC`, the E-score was -0.137.
`GGCGATAC` has an E-score of -0.104.
The E-score of `ACAGCCAG` is reported as -0.165.
`AGAGGCTA` gave an E-score of -0.0607.
The E-score of `CATTAAAA` is reported as 0.286.
`CGATGGGA` has an E-score of -0.119.
With `AACCGGAG` the E-score was -0.207.
`CTCGACGA` has an E-score of -0.241.
For `CCGTTTTA`, the E-score was 0.066.
With `AACAAGGT` the E-score was 0.0765.
`GGTGCAAA` has an E-score of 0.00387.
The E-score of `GCCCTCTA` is reported as -0.228.
`CATGGCAC` gave an E-score of -0.122.

Block 4 — method: RNA Bind-n-Seq; molecule type: RNA; sample: in vitro; tested at: 365 nM; relative to: no-protein control; reading: higher = stronger binding
Target: RNA binding protein fox-1 homolog 2, RRM domain, GST-SBP tag (RBFOX2, Homo sapiens, UniProt O43251-10, residues 100-194)
Setting: natural RNA segment, single round, ends assumed
All sequences stand within: GGGAGUUCUACAGUCCGACGAUC … UGGAAUUCUCGGGUGCCAA
Target sequence (chain): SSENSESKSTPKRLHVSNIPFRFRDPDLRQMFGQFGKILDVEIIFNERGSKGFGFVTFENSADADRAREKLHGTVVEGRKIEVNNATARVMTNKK
`CAGCAGAGCUCAAGAUUGUAGAAACUCAGCAGAAGCUGGUAAAAACAUGGGGAGCCCGGAGGACAGGCUGCUGUCCAGGGCAGAGGCCAUGAAGAAGUGCUUCCGUGGCC` — result for “RBNS enrichment (R)”: 0.419.
`GGUUUUCUCUUUGGUGGUUUCUAAAGUGCCUUAUCUGCAAACAACUUCUUUUCUCCUUCAGGAACUGUGAAUGGCUAGAAGAAGGAGCUCAGUAAACUAGAAGUCCAGGG` — result for “RBNS enrichment (R)”: 0.392.
`UGGGACUUUAUUUUCACAUGUUAAAUGCUGGAAUAUAUUAUGAAAAUGUUUUCAAGAAAUCACUUAAGUGUUCAUAGACCAGUAUUUCUGACAGGUAAAAUGCUAAAAUA`: “RBNS enrichment (R)” 0.448.
For `AUUUCCCUCCUGGGAGAGAAGGAGAUCAGGGCAACUCGGAGAGGGCUGCGAGCAUUUCCCUCCCGGGAGAGGAGAUCAGGGCGACCUGCACGCACUGCGUAGAGCCUGGA`, “RBNS enrichment (R)” read 0.312.
Under “RBNS enrichment (R)”, `GACAUGAAAUAUGUAACUAGGAAAAACUGUUAACAUUAAACAUCAUAUUUAUGCAAAUUAAAUGCCCUUAAAAUUUUGCCAUUUGUCUUUCAUUUUAAAGGUUAUUUGCC` is recorded as 0.53.
`AAAAGACUUUAUGUGGAUCUUGUAAAACAGAACCAGAUCUCCUUCUGGGGAAGGCCUUGCCUCUAGGAUGGGCAAGGUUGACUAGGGAUAGUCCCAAAGCAUGACCACAA`: “RBNS enrichment (R)” 2.75.
For `UCAUGGUGUGAGAUGUGAAUAAUUGCACAUGGUUUUGAGAACAGGAACUGUAAAUCUGUUGCCCAAUCUUAACAUUUUUGAGCUGCAUUUAAGUAGACUUUGGACCGUUA`, “RBNS enrichment (R)” read 0.458.
For `AACAUUCAUUGUAUUUUGGUCUUGAGAAAUGCCUAUAGUUUUCCAAAUUAUUCUUGUACAGUUUUAUUUGUACAGUUCAGUGUAACCACCUAUCAUCUUGUUAACACUAG`, “RBNS enrichment (R)” read 0.488.

Block 5 — method: protein-binding microarray; molecule type: double-stranded DNA, one strand shown; sample: in vitro; tested at: 0.8 µM; setting: whole 60-bp probe, no competitor; reading: higher = stronger binding; all sequences stand within: … GTCTTGATTCGCTTGACGCTGCTG
Target: Centromere-binding protein 1, full length, N-terminal tag (CBF1, Saccharomyces cerevisiae, UniProt P17106, residues 1-351)
Sequence of UniProt P17106 (whole entry, looked up): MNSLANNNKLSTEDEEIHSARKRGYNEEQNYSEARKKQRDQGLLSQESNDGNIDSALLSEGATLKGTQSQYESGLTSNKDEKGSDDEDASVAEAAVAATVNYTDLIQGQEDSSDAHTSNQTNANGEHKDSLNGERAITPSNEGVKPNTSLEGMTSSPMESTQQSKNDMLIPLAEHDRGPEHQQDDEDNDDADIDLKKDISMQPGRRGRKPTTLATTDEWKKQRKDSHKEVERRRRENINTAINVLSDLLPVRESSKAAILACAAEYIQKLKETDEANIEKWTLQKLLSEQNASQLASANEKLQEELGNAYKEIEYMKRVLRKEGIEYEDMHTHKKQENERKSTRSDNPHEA
With `CTAATTTTCCTCTCTGATGTCCTTTACACCTTCTTC` the fluorescence intensity was 508 a.u.
For `GAACACTACCTTCATCACCCGTACGAGTATTAATAG`, the fluorescence intensity was 536 a.u.
For `GAAGGAATCACGCGGCACGTCTTCTGGGGACTTTAG`, the fluorescence intensity was 1380 a.u.
The fluorescence intensity of `GAACTATTCGGGACTGATGTCATATAGAAACATTAG` is reported as 572 a.u.
`CTAAAACCGCCCAATCACGCTGACCCCTTTGGCTTC` gave a fluorescence intensity of 605 a.u.
`CTAACGATGCTGCACGTGGTTAGTTTTGTAAGCTTC` gave a fluorescence intensity of 7260 a.u.
`CTACTGTTGTATTTCCGCGTGAATCCACTTTTATTC` gave a fluorescence intensity of 558 a.u.
For `CTATGTGCCACATATCACGTAATCATATATTGTTTC`, the fluorescence intensity was 566 a.u.
`CTATCACTGTGCAATCACCTGATGATGTGGTTTTTC` has a fluorescence intensity of 1780 a.u.
`CTATTGATATGCATGCATGTGGACGCAAGCACATTC` gave a fluorescence intensity of 659 a.u.
`GAACGCCGCACAAAGGTGACGATTTTTGGGCTATAG` has a fluorescence intensity of 510 a.u.
For `CTATATCCAGGCGGTGGTGGTGGTGGTGGTGGATTC`, the fluorescence intensity was 485 a.u.
`CTAAAAACCGTGCAGGACGTGGTCTAAGCTACTTTC` has a fluorescence intensity of 527 a.u.
`CTACAGTCAATTCGTCAGCTGGCCGATGAAAGGTTC` has a fluorescence intensity of 626 a.u.
`CTAACCACACACTTTAACATCAGAAGAAAACTTTTC` has a fluorescence intensity of 531 a.u.
`CTAGAGCTTCCAGGTCACGGTCTACGGCGGGCGTTC` gave a fluorescence intensity of 983 a.u.

Repeated from above (block 2):
`ACCCTTGG` gave an E-score of -0.152.
`GGCACACA` gave an E-score of 0.0942.
The E-score of `TACCCGAA` is reported as -0.133.
For `CCTACGTA`, the E-score was -0.0491.
`GGCCATTA` has an E-score of -0.0252.
`CGTGAGCC` gave an E-score of -0.0366.
